Measured values from different studies.
Numbered parts are unrelated; each lists some results of a single study. Changes are numbered by the printed parent chain.

Series 1 — method: RNA Bind-n-Seq; molecule type: RNA; medium: in vitro; concentration: 365 nM; relative to: no-protein control; direction: higher = stronger binding
Target: RNA binding protein fox-1 homolog 2, RRM domain, GST-SBP tag (RBFOX2, Homo sapiens, UniProt O43251-10, residues 100-194)
Setting: natural RNA segment, single round, ends assumed
Target sequence (chain): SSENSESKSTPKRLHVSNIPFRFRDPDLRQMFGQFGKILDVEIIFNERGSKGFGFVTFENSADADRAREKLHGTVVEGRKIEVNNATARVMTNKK
`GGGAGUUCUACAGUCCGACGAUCAGUGGUUGCUCUGCUAAAAUAAGGGGCAUUUAAAAGCCAAAUGUAACCAUGGGAUUCAGAAGAGCACUAACCAGUGCAGCAUAGAAAUAGGAAUAGCGUAGGAAUAGAAAUGGAAUUCUCGGGUGCCAA` — result for “RBNS enrichment (R)”: 0.736.
For `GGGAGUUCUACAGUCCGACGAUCGUCUUGGCCCUGGGCCAUAUGAGGGGCCAGGAAAUGAACGACAAGGAGGAUAAGAGUGUUCUUUCUUGAAAGCCGGGACUUCCCCUCAAGAACCUGGGCCUGGGGCCGGGUGGAAUUCUCGGGUGCCAA`, “RBNS enrichment (R)” read 1.07.
Under “RBNS enrichment (R)”, `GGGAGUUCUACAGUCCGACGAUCCCAUGUUGGCCAGGCUGGUCUCGAACUCCUGACCUCAGGUGAUCUGCCCACCCCAGCCUCCCAAAAUGCUGGGAUUACAGGCGUGAGCCACGGCACGCAGCCAGCAAGUUUGGAAUUCUCGGGUGCCAA` is recorded as 0.323.
For `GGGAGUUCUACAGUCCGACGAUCGAGGACCUUUUACUAAAAGGUAGAAGACUUCAUGGCUUACUUGUUCCAUAACUCCAAGUGAGUCUGUAAUGUUUGUGAAGCUUGACUGUAACCAUGUUUUUUCUGUUUAAUGGAAUUCUCGGGUGCCAA`, “RBNS enrichment (R)” read 0.667.
`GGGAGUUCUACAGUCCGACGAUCGGCCACUUCCAGGGGUGUGCCCGGGGUUAGGCAAGUGGCAGACGAGGGUUCUUAUUUGAGGCUUUGCUAGGCUCAUCUGCUGUGUCCUGGGUAGUCCACUCAUAUUCUUGUGGAAUUCUCGGGUGCCAA` — result for “RBNS enrichment (R)”: 0.695.
For `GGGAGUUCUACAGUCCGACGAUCUUGUUUUGGCAGUUGACAAGAAGUUAAUUUGCUUUAGUAAAAAUCCCUCAUUCCAGCCUUUCUAUAUAAAUAGCUCUUUCUUGCUGUUUUAAUGUGGUGCACACUAUAGCUGGAAUUCUCGGGUGCCAA`, “RBNS enrichment (R)” read 0.747.
Under “RBNS enrichment (R)”, `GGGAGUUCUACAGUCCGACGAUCUUAAGAGAACACCUGUGGUUUAAAUGUUCUUUUUCUGCUUCCUUUUCUAUCUGAGAGGUCCUAACCAUUACAGCUAUCACCCCUCGGCUGACAUGGUCUUUCAAGAUUCUUGGAAUUCUCGGGUGCCAA` is recorded as 0.427.
For `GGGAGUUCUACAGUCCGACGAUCGAAUUGCUGUGCAAGGCUCACCCUCUCUCUGUCAACACUGGAAUAAACUUUGCCUUUUCUGAGUAGUUGUUUGCCUGCCUCUCUCUGGGCUCCAUCCUUGCCCCCAAACUUGGAAUUCUCGGGUGCCAA`, “RBNS enrichment (R)” read 0.89.

Series 2 — method: universal PBM; molecule type: double-stranded DNA, one strand shown; medium: in vitro; concentration: 600 nM; direction: higher = stronger binding
Target: Sal-like protein 4, full length isoform A (SALL4, Homo sapiens, UniProt Q9UJQ4, residues 1-1053)
UniProt Q9UJQ4, sequence (whole entry, looked up): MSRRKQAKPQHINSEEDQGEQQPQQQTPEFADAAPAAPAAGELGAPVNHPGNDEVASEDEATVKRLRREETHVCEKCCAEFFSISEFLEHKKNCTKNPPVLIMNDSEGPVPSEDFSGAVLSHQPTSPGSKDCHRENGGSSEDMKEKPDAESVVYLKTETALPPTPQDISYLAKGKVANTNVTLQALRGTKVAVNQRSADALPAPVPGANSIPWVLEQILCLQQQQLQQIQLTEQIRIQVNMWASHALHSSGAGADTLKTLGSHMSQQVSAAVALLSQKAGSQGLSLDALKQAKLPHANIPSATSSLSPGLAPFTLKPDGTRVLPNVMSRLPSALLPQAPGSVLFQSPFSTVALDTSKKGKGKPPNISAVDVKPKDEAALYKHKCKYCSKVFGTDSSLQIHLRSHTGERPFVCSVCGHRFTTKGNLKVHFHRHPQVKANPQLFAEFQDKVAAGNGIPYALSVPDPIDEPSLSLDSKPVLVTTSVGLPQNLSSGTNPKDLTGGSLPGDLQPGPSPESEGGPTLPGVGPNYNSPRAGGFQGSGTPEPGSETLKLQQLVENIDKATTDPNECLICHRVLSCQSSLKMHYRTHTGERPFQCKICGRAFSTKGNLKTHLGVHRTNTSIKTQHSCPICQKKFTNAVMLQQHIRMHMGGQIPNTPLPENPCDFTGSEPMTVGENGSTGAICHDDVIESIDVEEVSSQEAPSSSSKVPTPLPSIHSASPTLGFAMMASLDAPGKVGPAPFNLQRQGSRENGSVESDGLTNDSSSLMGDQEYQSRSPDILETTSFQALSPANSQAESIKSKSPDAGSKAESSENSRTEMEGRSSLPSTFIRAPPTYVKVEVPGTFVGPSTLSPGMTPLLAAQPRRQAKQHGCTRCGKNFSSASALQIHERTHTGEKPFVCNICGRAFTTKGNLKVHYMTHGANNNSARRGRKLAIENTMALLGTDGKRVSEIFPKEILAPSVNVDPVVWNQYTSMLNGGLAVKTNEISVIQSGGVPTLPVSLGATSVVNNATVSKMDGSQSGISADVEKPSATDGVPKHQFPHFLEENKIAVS
Setting: 8-mer, flanks averaged, mean of replicates
For `GAAAAACC`, the E-score was 0.0557.
`CGAGCCTC` gave an E-score of -0.172.
`CACGGGAC` has an E-score of -0.236.
With `TCTGCACA` the E-score was 0.127.
The E-score of `CTCTTAGA` is reported as 0.008.
`CTTCGTGC` has an E-score of -0.108.
The E-score of `ATGCAGAC` is reported as -0.0502.
The E-score of `GACATGGA` is reported as 0.0139.
The E-score of `AGTTCTGC` is reported as -0.0139.
With `ACGATTAG` the E-score was 0.133.
`AGCGAGTA` gave an E-score of -0.104.
For `GGAAAAAC`, the E-score was 0.153.
With `CCGATGTC` the E-score was -0.173.
With `AGAGCATC` the E-score was -0.0571.
The E-score of `TAATAGTA` is reported as 0.297.
`AGCGACGG` gave an E-score of -0.286.
For `ACCCACAA`, the E-score was 0.0677.
`CTGCTCAC` has an E-score of -0.185.
`CCCCACCC` has an E-score of -0.156.
With `AAAGTTCT` the E-score was 0.148.
`GATTTTGA` has an E-score of 0.208.
`ATGGGTTG` gave an E-score of -0.00721.
For `AGCGTGAT`, the E-score was -0.0199.

Series 3 — target: CCNA1, cyclin fold, Cln2 fusion (human); method: yeast growth competition, sequencing; medium: yeast; setting: weak parent motif; relative to: not given; direction: higher = stronger binding
Starting sequence: PKN2 docking peptide (human); VSAVRKLDFSDTM
`K6D`: “normalised enrichment score” 0.0634.
Under “normalised enrichment score”, `D11H` is recorded as 0.724.
For `S10Q`, “normalised enrichment score” read 0.924.
For `T12M`, “normalised enrichment score” read 1.06.
`R5H`: “normalised enrichment score” -0.0592.
`D8T`: “normalised enrichment score” 0.152.
For `V4P`, “normalised enrichment score” read 0.418.
`S10N` — result for “normalised enrichment score”: 0.77.
`V4R`: “normalised enrichment score” 1.75.
For `D11E`, “normalised enrichment score” read 0.921.
Under “normalised enrichment score”, `V4D` is recorded as -0.015.
Under “normalised enrichment score”, `R5S` is recorded as 0.113.
Under “normalised enrichment score”, `A3Q` is recorded as 0.0302.
Under “normalised enrichment score”, `V4Q` is recorded as 0.849.
For `S2A`, “normalised enrichment score” read 0.617.
`D11T`: “normalised enrichment score” 0.461.
`S10H`: “normalised enrichment score” 0.511.
For `L7E`, “normalised enrichment score” read 0.412.
Under “normalised enrichment score”, `D8L` is recorded as -0.0895.
`D11G`: “normalised enrichment score” 0.646.
Under “normalised enrichment score”, `S2R` is recorded as 1.15.
Under “normalised enrichment score”, `D11Q` is recorded as 0.882.
`A3R`: “normalised enrichment score” 0.328.
Under “normalised enrichment score”, `D11M` is recorded as 0.49.
For `A3C`, “normalised enrichment score” read 1.31.

Series 4 — method: protein-binding microarray; molecule type: double-stranded DNA, one strand shown; medium: in vitro; concentration: 0.8 µM; setting: whole 60-bp probe, no competitor; direction: higher = stronger binding
Target: Centromere-binding protein 1, full length, N-terminal tag (CBF1, Saccharomyces cerevisiae, UniProt P17106, residues 1-351)
UniProt P17106, sequence (whole entry, looked up): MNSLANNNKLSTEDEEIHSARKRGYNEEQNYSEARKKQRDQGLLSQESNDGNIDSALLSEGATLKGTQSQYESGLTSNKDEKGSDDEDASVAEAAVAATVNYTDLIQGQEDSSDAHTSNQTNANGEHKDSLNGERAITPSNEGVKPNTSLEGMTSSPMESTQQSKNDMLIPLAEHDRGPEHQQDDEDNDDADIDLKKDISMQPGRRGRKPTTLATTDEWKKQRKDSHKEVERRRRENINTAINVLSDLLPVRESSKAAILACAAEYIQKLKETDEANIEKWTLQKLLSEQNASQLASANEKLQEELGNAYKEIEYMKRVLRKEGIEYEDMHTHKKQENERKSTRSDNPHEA
`GAACCACTAGAATGTCATCAGATGAAAAAGACGTAGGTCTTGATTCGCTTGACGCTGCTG` gave a fluorescence intensity of 567 a.u.
`CTAACCCGTCTCCGTCACGTGAAGTAAAAATTTTTCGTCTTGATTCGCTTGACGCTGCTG` gave a fluorescence intensity of 14200 a.u.
The fluorescence intensity of `CTAGCCACTAAAACTGATGGCGCGAGAAACAAATTCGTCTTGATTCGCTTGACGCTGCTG` is reported as 533 a.u.
For `GAATGCATACCCGCACTCGTGCTTACATGCTAATAGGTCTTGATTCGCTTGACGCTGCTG`, the fluorescence intensity was 581 a.u.
The fluorescence intensity of `CTACCTCCCGAACAACGTGAAATCTTTTTGCTTTTCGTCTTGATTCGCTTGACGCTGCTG` is reported as 613 a.u.
`GAACAAAGTCACATACTGATGATGATATTGTAATAGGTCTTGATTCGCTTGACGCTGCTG` gave a fluorescence intensity of 543 a.u.
`GAATATATCGGCGAGAGCGTGCGTTCTATCAACTAGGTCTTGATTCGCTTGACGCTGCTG` has a fluorescence intensity of 505 a.u.
For `GAACTAGGGAAATTGCACATGGAAGTATCTGGATAGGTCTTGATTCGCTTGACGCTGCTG`, the fluorescence intensity was 554 a.u.
`CTATCTTTAATCTTTCATATGATGAAATAATAGTTCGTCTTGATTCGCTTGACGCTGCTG` has a fluorescence intensity of 591 a.u.
The fluorescence intensity of `GAAGTAAATACTGAAAACGTGCTGGAGAATAGTTAGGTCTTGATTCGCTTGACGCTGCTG` is reported as 998 a.u.
`GAATGTGGACCCCCTCACCTTATACCACTACGTTAGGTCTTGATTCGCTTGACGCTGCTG` has a fluorescence intensity of 498 a.u.
The fluorescence intensity of `CTACCGGGTCCCACACATGTGCGCCCTTAGCCTTTCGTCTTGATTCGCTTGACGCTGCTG` is reported as 661 a.u.
`GAAAACAAGGAACAACGCGTGCTAGCAAGCGGTTAGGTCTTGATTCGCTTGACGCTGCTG` has a fluorescence intensity of 532 a.u.
With `TGTACGAAGCTATGCCACGATCCTATAGTAGTTAGGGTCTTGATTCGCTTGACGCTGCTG` the fluorescence intensity was 523 a.u.
`GAAATTTTGGCAAATTCACTCACGTGAGGGCGTTAGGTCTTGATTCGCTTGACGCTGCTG` has a fluorescence intensity of 11800 a.u.
The fluorescence intensity of `GAACTTTAAATCGGTGACGATGCGAAAGCAAATTAGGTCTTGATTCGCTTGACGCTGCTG` is reported as 530 a.u.
`CTAAATTCTACTTATCACGTCCCATTGTTGCTATTCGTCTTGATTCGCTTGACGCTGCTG` has a fluorescence intensity of 573 a.u.
`CTAAACTGTGTACGTGATTTCTTTGTCCCCTGCTTCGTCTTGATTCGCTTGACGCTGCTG` has a fluorescence intensity of 736 a.u.
For `CTACTAGTATATTATCACATGCAGTGTAAGAAGTTCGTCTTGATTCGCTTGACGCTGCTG`, the fluorescence intensity was 1580 a.u.

Excerpt of the above (series 2):
`ATGGGTTG` gave an E-score of -0.00721.
The E-score of `TAATAGTA` is reported as 0.297.
`CACGGGAC` has an E-score of -0.236.
With `ACGATTAG` the E-score was 0.133.
The E-score of `CTCTTAGA` is reported as 0.008.
`CCCCACCC` has an E-score of -0.156.
For `AGCGTGAT`, the E-score was -0.0199.
With `AGAGCATC` the E-score was -0.0571.
With `CCGATGTC` the E-score was -0.173.
For `GGAAAAAC`, the E-score was 0.153.
With `TCTGCACA` the E-score was 0.127.
